# Assay results collected from several papers.
# Numbers after ± are the reported error.
Structure (SMILES),assay,system,conditions,scale,measurement,result
O=C(O)c1ccc(-c2nc(-c3ccccc3Cl)c3sccn23)cc1,,"mouse, plasma","oral, dose not given, day 10, no 5-FU",,plasma concentration,13.2 ng/mL
O=C1NC2(CC2)COc2ncc(F)cc2[C@H]2COCCN2c2ccn3ncc1c3n2,,"Sprague-Dawley rat, male, blood","oral, 2.5 mg/kg/day, 4 weeks, end of treatment, subacute toxicity",,haemoglobin,142 ± 9 g/L
CC(C)[C@H](NC(=O)[C@H](Cc1c[nH]c2ccccc12)NC(=O)[C@H](CCCNC(=N)N)NC(=O)[C@H](CCCNC(=N)N)NC(=O)[C@@H](NC(=O)[C@@H](NC(=O)[C@H](CCCNC(=N)N)NC(=O)[C@@H](NC(=O)[C@@H](NC(=O)[C@H](CCCNC(=N)N)NC(=O)[C@H](CCCNC(=N)N)NC(=O)[C@@H](NC(=O)[C@H](Cc1c[nH]c2ccccc12)NC(=O)[C@H](CCCNC(=N)N)NC(=O)[C@H](CCCNC(=N)N)NC(=O)[C@@H](NC(=O)[C@H](CCCNC(=N)N)NC(=O)[C@H](CCCNC(=N)N)NC(=O)[C@@H](NC(=O)[C@H](Cc1c[nH]c2ccccc12)NC(=O)[C@H](CCCNC(=N)N)NC(=O)[C@@H](N)CCCNC(=N)N)C(C)C)C(C)C)C(C)C)C(C)C)C(C)C)C(C)C)C(C)C)C(=O)N[C@@H](CCCNC(=N)N)C(=O)N[C@@H](CCCNC(=N)N)C(=O)O,,mice,"intravenous, 15 mg/kg daily, 14 days, 5 doses",,body weight change,4.8%
O=C(NCc1ccc(Cl)cn1)C(=O)C(Cc1ccccc1)NC(=O)C1CC(F)CN1C(=O)C(NC(=O)C1CCC(F)(F)CC1)C1CCCCC1 (stereo not drawn),,dog,,,oral bioavailability,132%
O=C(CN1CCN(CC(=O)NCP(=O)([O-])[O-])CCN(CC(=O)NCP(=O)([O-])[O-])CCN(CC(=O)NCP(=O)([O-])[O-])CC1)NCP(=O)([O-])[O-].[Gd+3],,"Sprague-Dawley rats, blood","intravenous, 35 µmol/kg, two-compartment model, with: GdDTPA 68 µmol/kg co-injected",,AUC(0-inf),196 kg·min/L
CC[C@H](C)[C@H](NC(=O)[C@H](CCCCN)NC(=O)CNC(=O)[C@H](CC(C)C)NC(=O)[C@H](Cc1ccccc1)NC(=O)[C@H](CCCCN)NC(=O)[C@H](CO)NC(=O)[C@H](Cc1ccccc1)NC(=O)[C@H](Cc1c[nH]c2ccccc12)NC(=O)[C@H](CCC(N)=O)NC(=O)[C@@H](NC(=O)[C@H](Cc1ccccc1)NC(=O)CCCCCNC(=O)CN1CCN(CC(=O)O)CCN(CC(=O)O)CCN(CC(=O)O)CC1)C(C)C)C(=O)N[C@@H](CCC(=O)O)C(=O)N1CCC[C@H]1C(=O)N[C@H](CC(=O)O)C(=O)N[C@H](C(=O)N[C@@H](CO)C(=O)N[C@@H](CCC(N)=O)C(=O)N[C@H](C(=O)N[C@@H](CCC(N)=O)C(=O)N[C@@H](CC(=O)O)C(=O)N1CCC[C@H]1C(=O)N[C@@H](CC(N)=O)C(=O)N[C@@H](CC(=O)O)C(=O)N[C@@H](CCC(N)=O)C(=O)N[C@@H](Cc1ccc(O)cc1)C(=O)N[C@@H](CCC(=O)O)C(=O)N1CCC[C@H]1C(=O)N[C@@H](Cc1ccccc1)C(=O)O)C(C)C)C(C)C [copper-64 labelled],,"female mice, EMT6 tumour-bearing, muscle","2 h, uncleavable control tracer, vehicle-treated",,tissue uptake,0.36 ± 0.05 %ID/g
CC(C)C[C@@H](NC(=O)[C@@H](CCCNC(=N)N)NC(=O)[C@@H](Cc1c[nH]cn1)NC(=O)[C@@H](Cc1c[nH]c2ccccc12)NC(=O)[C@@H](Cc1c[nH]cn1)NC(=O)[C@@H](Cc1ccccc1)NC(=O)[C@H](NC(=O)[C@@H](Cc1ccc(O)cc1)NC(=O)CNC(=O)CNC(=O)CCOCCOCCOCCNC(=O)CN1CCN(CC(=O)O)CCN(CC(=O)O)CC1)[C@H](C)O)C(=O)N[C@H](CC(N)=O)C(=O)N1CCC[C@@H]1C(=O)O [gallium-68 labelled],,"human female, from C57BL/6 mouse, total body",,,absorbed dose,0.0126 mSv/MBq
N=C(N)NCCC[C@@H](NC(=O)[C@H](N)Cc1c[nH]c2ccccc12)C(=O)N[C@H](CCCCN)C(=O)N[C@H](Cc1c[nH]c2ccccc12)C(=O)N[C@H](CCCNC(=N)N)C(=O)N[C@H](CCCCN)C(=O)N[C@H](Cc1c[nH]c2ccccc12)C(=O)N[C@H](CCCNC(=N)N)C(=O)N[C@H](CCCCN)C(=O)N[C@H](Cc1c[nH]c2ccccc12)C(=O)N[C@H](CCCNC(=N)N)C(=O)N[C@H](CCCCN)C(N)=O,,"mouse, heart","intravenous, 20 mg/kg single dose, 7 days",,organ index,0.448
CC[C@H](C)[C@H](NC(=O)CNC(=O)[C@H](CCSC)NC(=O)[C@H](CCC(N)=O)NC(=O)[C@H](C)NC(=O)[C@H](CCC(N)=O)NC(=O)[C@@H](NC(=O)[C@H](CC(C)C)NC(=O)[C@H](C)NC(=O)[C@H](CO)NC(=O)[C@H](CCSC)NC(=O)[C@H](CCC(=O)O)NC(=O)[C@H](CC(C)C)NC(=O)[C@H](Cc1ccc(O)cc1)NC(=O)[C@H](CO)NC(=O)[C@H](CCC(=O)O)NC(=O)[C@H](CCC(N)=O)NC(=O)[C@H](CCCNC(=N)N)NC(=O)[C@H](CCCCN)NC(=O)[C@H](CC(=O)O)NC(=O)[C@H](CC(C)C)NC(=O)[C@H](CC(N)=O)NC(=O)[C@H](Cc1ccccc1)NC(=O)[C@H](CCC(=O)O)NC(=O)[C@H](CCCCN)NC(=O)[C@@H](NC(=O)[C@H](CC(C)C)NC(=O)[C@H](CCC(=O)O)NC(=O)[C@H](CCC(=O)O)NC(=O)[C@@H](NC(=O)[C@@H](NC(=O)[C@H](CCCNC(=N)N)NC(=O)[C@H](CCCCN)NC(=O)[C@H](C)NC(=O)[C@H](Cc1ccccc1)NC(=O)[C@H](CCC(=O)O)NC(=O)[C@H](CCC(=O)O)NC(=O)[C@H](CC(C)C)NC(=O)[C@@H](N)CO)C(C)C)C(C)C)C(C)C)[C@@H](C)CC)C(=O)N[C@@H](CO)C(=O)N[C@@H](CCC(=O)O)C(=O)N[C@@H](CCCNC(=N)N)C(=O)N[C@H](C(=O)N[C@H](C(=O)N[C@@H](CCC(=O)O)C(=O)N[C@H](C(=O)N[C@H](C(=O)N[C@@H](CC(C)C)C(=O)N[C@@H](CCCNC(=N)N)C(=O)N[C@@H](Cc1c[nH]cn1)C(=O)N[C@@H](C)C(=O)N[C@@H](C)C(=O)N[C@@H](CCC(N)=O)C(=O)N[C@H](C(=O)N[C@@H](CC(C)C)C(=O)N[C@@H](CCCCN)C(=O)O)[C@@H](C)O)C(C)C)[C@@H](C)CC)[C@@H](C)CC)[C@@H](C)CC,,"CD-1 ICR mouse, male, plasma","intravenous, 1 mg/kg",,clearance,6.5 mL/min/kg
CSCC[C@H](N)C(=O)N[C@@H](C)C(=O)N[C@@H](Cc1c[nH]c2ccccc12)C(=O)N[C@@H](Cc1c[nH]cn1)C(=O)N[C@@H](CC(=O)O)C(=O)N[C@@H](CC(=O)O)C(=O)N[C@@H](CCC(=O)O)C(=O)N[C@@H](CCC(=O)O)C(=O)N[C@@H](Cc1ccccc1)C(=O)N[C@@H](C)C(=O)N[C@@H](CCCNC(=N)N)C(=O)N[C@@H](CCCNC(=N)N)C(=O)N[C@@H](CCCNC(=N)N)C(=O)N[C@@H](CCCNC(=N)N)C(=O)NCCCCCC(=O)NCCCCC(NC(=O)CCCCCNC(=O)[C@H](CCCNC(=N)N)NC(=O)[C@H](CCCNC(=N)N)NC(=O)[C@H](CCCNC(=N)N)NC(=O)[C@H](CCCNC(=N)N)NC(=O)[C@H](C)NC(=O)[C@H](Cc1ccccc1)NC(=O)[C@H](CCC(=O)O)NC(=O)[C@H](CCC(=O)O)NC(=O)[C@H](CC(=O)O)NC(=O)[C@H](CC(=O)O)NC(=O)[C@H](Cc1c[nH]cn1)NC(=O)[C@H](Cc1c[nH]c2ccccc12)NC(=O)[C@H](C)NC(=O)[C@@H](N)CCSC)C(=O)NCCCCC(NC(=O)C(CCCCNC(=O)CCCCCNC(=O)[C@H](CCCNC(=N)N)NC(=O)[C@H](CCCNC(=N)N)NC(=O)[C@H](CCCNC(=N)N)NC(=O)[C@H](CCCNC(=N)N)NC(=O)[C@H](C)NC(=O)[C@H](Cc1ccccc1)NC(=O)[C@H](CCC(=O)O)NC(=O)[C@H](CCC(=O)O)NC(=O)[C@H](CC(=O)O)NC(=O)[C@H](CC(=O)O)NC(=O)[C@H](Cc1c[nH]cn1)NC(=O)[C@H](Cc1c[nH]c2ccccc12)NC(=O)[C@H](C)NC(=O)[C@@H](N)CCSC)NC(=O)CCCCCNC(=O)[C@H](CCCNC(=N)N)NC(=O)[C@H](CCCNC(=N)N)NC(=O)[C@H](CCCNC(=N)N)NC(=O)[C@H](CCCNC(=N)N)NC(=O)[C@H](C)NC(=O)[C@H](Cc1ccccc1)NC(=O)[C@H](CCC(=O)O)NC(=O)[C@H](CCC(=O)O)NC(=O)[C@H](CC(=O)O)NC(=O)[C@H](CC(=O)O)NC(=O)[C@H](Cc1c[nH]cn1)NC(=O)[C@H](Cc1c[nH]c2ccccc12)NC(=O)[C@H](C)NC(=O)[C@@H](N)CCSC)C(N)=O (stereo partly drawn),,"C57BL/6 mouse female, spine","dose not given, 6 h",relative to: total,tissue distribution,5.67%
CCOC(=O)N1CCN(C(c2cccs2)c2c(C)[nH]c3ccccc23)CC1 (stereo not drawn),"cytotoxicity, CellTiter-Glo","primary brown adipocytes, mouse C57BL/6",48 h,,CC50,> 122 µM
CCCCCCCCCCCCCCCC(=O)N[C@@H](CCC(=O)NCCOCCOCCC(=O)NCCOCCOCCC(=O)NCCCC[C@H](NC(=O)[C@H](CC(=O)O)NC(=O)[C@H](CC(C)C)NC(=O)[C@H](Cc1ccc(O)cc1)NC(=O)[C@H](CCCCN)NC(=O)[C@H](CO)NC(=O)[C@H](Cc1ccc(O)cc1)NC(=O)[C@H](CC(=O)O)NC(=O)[C@H](CO)NC(=O)[C@@H](NC(=O)[C@H](Cc1ccccc1)NC(=O)[C@@H](NC(=O)CNC(=O)[C@H](CCC(N)=O)NC(=O)[C@@H](CO)NC(=O)[C@@H](N)Cc1c[nH]cn1)[C@@H](C)O)[C@@H](C)O)C(=O)N[C@@H](CCCNC(=N)N)C(=O)N[C@@H](CCCNC(=N)N)C(=O)N[C@@H](C)C(=O)N[C@@H](CCC(N)=O)C(=O)N[C@@H](CC(=O)O)C(=O)N[C@@H](Cc1ccccc1)C(=O)N[C@H](C(=O)N[C@@H](CCC(N)=O)C(=O)N[C@@H](Cc1c[nH]c2ccccc12)C(=O)N[C@@H](CC(C)C)C(=O)N[C@@H](CC(C)C)C(=O)N[C@@H](CC(N)=O)C(=O)N[C@H](C(=O)NCC(=O)NCC(=O)N1CCC[C@H]1C(=O)N[C@@H](CO)C(=O)N[C@@H](CO)C(=O)NCC(=O)N[C@@H](C)C(=O)N1CCC[C@H]1C(=O)N1CCC[C@H]1C(=O)N1CCC[C@H]1C(=O)N[C@@H](CO)C(N)=O)[C@@H](C)O)C(C)C)C(=O)O,,"Sprague-Dawley rat, female","subcutaneous, 500 µg/kg once daily, 14 days",,creatinine,28.2 ± 3.6 µmol/L
